# Results collected from several papers.
# Compare with care: the assays were run in different laboratories. ± gives the spread as reported.
Compound,test,system,conditions,t1/2 [min]
C=C(C)[C@@H]1CC[C@]2(NCCN3CCS(=O)(=O)CC3)CC[C@]3(C)[C@H](CC[C@@H]4[C@@]5(C)CC=C(C6=CC[C@@](CF)(C(=O)O)CC6)C(C)(C)[C@@H]5CC[C@]43C)[C@@H]12,,healthy human,"oral, 30 mg, single ascending dose, geometric mean",1270
CN(C)C(=O)c1cc2cnc(Nc3ccc(N4CCNCC4)cn3)nc2n1C1CCCC1,,"human, normal renal function, plasma","oral, 400 mg, geometric mean",2160
COc1cc(Nc2ncc3c(n2)-c2ccc(Cl)cc2C(c2c(F)cccc2OC)=NC3)ccc1C(=O)O,,"human, plasma","oral, 60 mg twice daily, day 7, steady state, ECT",1680
COc1ccc2[nH]c([S+]([O-])Cc3ncc(C)c(OC)c3C)nc2c1 (stereo not drawn),"UHPLC-MS/MS, noncompartmental","healthy Chinese volunteers, CYP2C19 *2/*2, plasma","oral, 20 mg single dose",151 ± 49.2
CC(C)NC[C@@H](C(=O)N1CCN(c2ncnc3c2[C@H](C)C[C@H]3O)CC1)c1ccc(Cl)cc1,,"human, Severe hepatic function, plasma","oral, 100 mg single dose, NCI classification, arithmetic mean",5170
Cc1cc(C)c2c(c1)[C@@H](N(Cc1cc(C(F)(F)F)cc(C(F)(F)F)c1)c1nnn(C)n1)CCCN2C[C@H]1CC[C@H](C(=O)O)CC1,LC-MS/MS,"human, plasma","oral, 600 mg once daily, steady state",2240
CC(C)(Sc1ccncc1-c1ccc(C#N)c2ccccc12)C(=O)O,,"human, male, Japanese, plasma","oral, 10 mg, day 1, fasted, single dose",527
CNC(=O)c1cc(Oc2ccc(NC(=O)Nc3ccc(Cl)c(C(F)(F)F)c3)cc2)ccn1,LC-MS/MS,"nude mice, HepG2 subcutaneous tumour, tumour","intratumoral, 20 µL per tumour, miR-140-3p",2390 ± 244
CC[C@H](C)[C@H](NC(=O)[C@H](CCC(=O)O)NC(=O)[C@H](CO)NC(=O)[C@@H](NC(=O)[C@@H](N)CO)C(C)C)C(=O)N[C@@H](CCC(N)=O)C(=O)N[C@@H](CC(C)C)C(=O)N[C@@H](CCSC)C(=O)N[C@@H](Cc1cnc[nH]1)C(=O)N[C@@H](CC(N)=O)C(=O)N[C@@H](CC(C)C)C(=O)NCC(=O)N[C@@H](CCCCN)C(=O)N[C@@H](Cc1cnc[nH]1)C(=O)N[C@@H](CC(C)C)C(=O)N[C@@H](CC(N)=O)C(=O)N[C@@H](CO)C(=O)N[C@@H](CCSC)C(=O)N[C@@H](CCC(=O)O)C(=O)N[C@@H](CCCN=C(N)N)C(=O)N[C@H](C(=O)N[C@@H](CCC(=O)O)C(=O)N[C@@H](Cc1c[nH]c2ccccc12)C(=O)N[C@@H](CC(C)C)C(=O)N[C@@H](CCCN=C(N)N)C(=O)N[C@@H](CCCCN)C(=O)N[C@@H](CCCCN)C(=O)N[C@@H](CC(C)C)C(=O)N[C@@H](CCC(N)=O)C(=O)N[C@@H](CC(=O)O)C(=O)N[C@H](C(=O)N[C@@H](Cc1cnc[nH]1)C(=O)N[C@@H](CC(N)=O)C(=O)N[C@@H](Cc1ccccc1)C(=O)O)C(C)C)C(C)C,,"human, plasma","sc, 56.5 µg once weekly, day 36, arithmetic mean",70.8 ± 27.8

# For quick reference, copied from above:
Compound,test,system,conditions,t1/2 [min]
CC[C@H](C)[C@H](NC(=O)[C@H](CCC(=O)O)NC(=O)[C@H](CO)NC(=O)[C@@H](NC(=O)[C@@H](N)CO)C(C)C)C(=O)N[C@@H](CCC(N)=O)C(=O)N[C@@H](CC(C)C)C(=O)N[C@@H](CCSC)C(=O)N[C@@H](Cc1cnc[nH]1)C(=O)N[C@@H](CC(N)=O)C(=O)N[C@@H](CC(C)C)C(=O)NCC(=O)N[C@@H](CCCCN)C(=O)N[C@@H](Cc1cnc[nH]1)C(=O)N[C@@H](CC(C)C)C(=O)N[C@@H](CC(N)=O)C(=O)N[C@@H](CO)C(=O)N[C@@H](CCSC)C(=O)N[C@@H](CCC(=O)O)C(=O)N[C@@H](CCCN=C(N)N)C(=O)N[C@H](C(=O)N[C@@H](CCC(=O)O)C(=O)N[C@@H](Cc1c[nH]c2ccccc12)C(=O)N[C@@H](CC(C)C)C(=O)N[C@@H](CCCN=C(N)N)C(=O)N[C@@H](CCCCN)C(=O)N[C@@H](CCCCN)C(=O)N[C@@H](CC(C)C)C(=O)N[C@@H](CCC(N)=O)C(=O)N[C@@H](CC(=O)O)C(=O)N[C@H](C(=O)N[C@@H](Cc1cnc[nH]1)C(=O)N[C@@H](CC(N)=O)C(=O)N[C@@H](Cc1ccccc1)C(=O)O)C(C)C)C(C)C,,"human, plasma","sc, 56.5 µg once weekly, day 36, arithmetic mean",70.8 ± 27.8
